Measurements pooled from the literature.
Protocols differ between the studies behind these lines. Numbers after ± are the reported error.
Organism: Leishmania donovani

Molecule | assay | system | conditions | IC50
O=Cc1cn(Cc2cccc(Cl)c2)c2ccc([N+](=O)[O-])cc12 | parasite growth, resazurin |  | promastigote | > 100 µM
c1ccc(CN2CCCNCCN(Cc3ccccc3)CCCNCC2)cc1 | parasite growth, resazurin |  | 72 h, amastigote | > 25 µM
C[C@@H]1N[C@H](CCCCCCCCCCC2=C[C@@H](CCCCCCCCCC[C@@H]3CC[C@@H](O)[C@H](C)N3)[C@@H]3CCCN3C2)CC[C@H]1O | parasite growth, resazurin |  | 72 h, promastigote | 0.18 µg/mL
CCOc1ccc(Nc2c3c(nc4ccccc24)CCC3)cc1 |  | DD8 resistant line, promastigotes |  | 14.5 ± 0.55 µM
Cc1ccc(Cn2cc(C=O)c3cc([N+](=O)[O-])ccc32)cc1 | parasite growth, resazurin | THP-1 | 72 h, intracellular, amastigote | > 10 µM
CN1CCN2CCN(CC1)CCN(Cc1ccccc1)CC2 |  | THP-1-derived macrophages, intracellular amastigotes |  | > 20 µM
meglumine antimoniate |  |  | promastigotes | 26.6 ± 5.4 µM
O=Cc1cn(Cc2ccc(F)cc2)c2ccc([N+](=O)[O-])cc12 | parasite growth, resazurin |  | promastigote | 92.5 µM
c1ccc(CN2CCN3CCN(CC2)CCN(Cc2ccccc2)CC3)cc1 | parasite growth, resazurin |  | 72 h, amastigote | 15.1 µM

A few entries again:
Molecule | assay | system | conditions | IC50
CCOc1ccc(Nc2c3c(nc4ccccc24)CCC3)cc1 |  | DD8 resistant line, promastigotes |  | 14.5 ± 0.55 µM
